# Assay results of several laboratories.
# Each line is one published result; not all experiments were run side by side. “And” joins repeats or separate records; there may be more than shown. Numbers after ± are the reported error.
# Sequence of UniProt Q16774 (whole entry, unmodified, looked up): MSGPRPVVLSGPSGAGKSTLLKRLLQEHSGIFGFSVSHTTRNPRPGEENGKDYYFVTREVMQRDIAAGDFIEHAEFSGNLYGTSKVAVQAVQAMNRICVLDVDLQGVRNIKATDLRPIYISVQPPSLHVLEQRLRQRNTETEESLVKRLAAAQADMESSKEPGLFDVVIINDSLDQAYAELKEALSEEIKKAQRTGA
# Sequence of UniProt P26368 (whole entry, looked up): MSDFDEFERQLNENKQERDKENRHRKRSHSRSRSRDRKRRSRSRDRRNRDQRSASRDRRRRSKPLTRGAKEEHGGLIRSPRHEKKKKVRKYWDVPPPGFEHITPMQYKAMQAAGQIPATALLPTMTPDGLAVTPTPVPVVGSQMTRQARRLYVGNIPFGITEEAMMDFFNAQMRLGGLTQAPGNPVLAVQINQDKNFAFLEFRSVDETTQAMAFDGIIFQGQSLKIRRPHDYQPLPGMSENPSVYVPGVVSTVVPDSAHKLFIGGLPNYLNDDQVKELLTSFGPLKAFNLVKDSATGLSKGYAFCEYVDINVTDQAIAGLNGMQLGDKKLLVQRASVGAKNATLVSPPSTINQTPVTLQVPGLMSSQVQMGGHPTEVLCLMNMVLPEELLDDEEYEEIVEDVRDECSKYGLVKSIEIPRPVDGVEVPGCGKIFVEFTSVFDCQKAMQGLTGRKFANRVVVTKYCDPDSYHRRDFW
# Sequence of UniProt P51575 (whole entry, unmodified, looked up): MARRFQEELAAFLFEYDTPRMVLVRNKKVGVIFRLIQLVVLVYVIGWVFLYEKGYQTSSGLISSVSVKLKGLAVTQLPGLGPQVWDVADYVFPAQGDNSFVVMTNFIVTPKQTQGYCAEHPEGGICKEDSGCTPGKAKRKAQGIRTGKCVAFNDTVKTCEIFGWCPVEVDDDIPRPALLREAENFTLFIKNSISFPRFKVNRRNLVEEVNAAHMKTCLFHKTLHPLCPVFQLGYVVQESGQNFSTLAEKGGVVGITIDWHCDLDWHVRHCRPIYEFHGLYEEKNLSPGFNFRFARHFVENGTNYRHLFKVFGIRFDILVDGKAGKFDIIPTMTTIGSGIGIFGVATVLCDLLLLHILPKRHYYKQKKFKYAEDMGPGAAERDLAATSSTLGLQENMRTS
# Sequence of UniProt P18031 (whole entry, unmodified, looked up): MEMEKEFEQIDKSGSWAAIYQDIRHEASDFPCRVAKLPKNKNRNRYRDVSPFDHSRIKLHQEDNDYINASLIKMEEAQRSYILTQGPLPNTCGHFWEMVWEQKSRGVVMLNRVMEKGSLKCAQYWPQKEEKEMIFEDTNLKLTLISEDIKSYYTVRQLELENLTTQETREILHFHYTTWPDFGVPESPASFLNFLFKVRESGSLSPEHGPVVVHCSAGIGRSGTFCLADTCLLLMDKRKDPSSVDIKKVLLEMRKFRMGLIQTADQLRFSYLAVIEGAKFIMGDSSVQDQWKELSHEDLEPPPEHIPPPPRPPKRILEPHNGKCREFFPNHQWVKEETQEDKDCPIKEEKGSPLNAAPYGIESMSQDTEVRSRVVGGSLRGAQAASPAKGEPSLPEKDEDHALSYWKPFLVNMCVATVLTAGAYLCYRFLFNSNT
# Sequence of UniProt Q59S66 (whole entry, looked up): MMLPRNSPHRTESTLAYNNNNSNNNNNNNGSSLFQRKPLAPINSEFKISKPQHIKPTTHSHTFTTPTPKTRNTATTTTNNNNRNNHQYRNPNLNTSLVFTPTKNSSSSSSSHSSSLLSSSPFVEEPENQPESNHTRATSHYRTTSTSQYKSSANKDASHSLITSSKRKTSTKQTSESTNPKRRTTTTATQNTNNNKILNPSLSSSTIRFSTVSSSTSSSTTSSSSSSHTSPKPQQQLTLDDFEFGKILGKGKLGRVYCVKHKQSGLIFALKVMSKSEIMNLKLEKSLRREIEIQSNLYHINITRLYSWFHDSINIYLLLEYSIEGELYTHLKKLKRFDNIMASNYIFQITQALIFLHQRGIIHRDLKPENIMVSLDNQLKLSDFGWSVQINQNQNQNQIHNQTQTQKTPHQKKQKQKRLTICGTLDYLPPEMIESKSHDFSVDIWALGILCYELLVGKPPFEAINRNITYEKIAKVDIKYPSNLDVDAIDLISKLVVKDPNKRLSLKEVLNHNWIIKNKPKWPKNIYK
# Sequence of UniProt Q62351 (whole entry, looked up): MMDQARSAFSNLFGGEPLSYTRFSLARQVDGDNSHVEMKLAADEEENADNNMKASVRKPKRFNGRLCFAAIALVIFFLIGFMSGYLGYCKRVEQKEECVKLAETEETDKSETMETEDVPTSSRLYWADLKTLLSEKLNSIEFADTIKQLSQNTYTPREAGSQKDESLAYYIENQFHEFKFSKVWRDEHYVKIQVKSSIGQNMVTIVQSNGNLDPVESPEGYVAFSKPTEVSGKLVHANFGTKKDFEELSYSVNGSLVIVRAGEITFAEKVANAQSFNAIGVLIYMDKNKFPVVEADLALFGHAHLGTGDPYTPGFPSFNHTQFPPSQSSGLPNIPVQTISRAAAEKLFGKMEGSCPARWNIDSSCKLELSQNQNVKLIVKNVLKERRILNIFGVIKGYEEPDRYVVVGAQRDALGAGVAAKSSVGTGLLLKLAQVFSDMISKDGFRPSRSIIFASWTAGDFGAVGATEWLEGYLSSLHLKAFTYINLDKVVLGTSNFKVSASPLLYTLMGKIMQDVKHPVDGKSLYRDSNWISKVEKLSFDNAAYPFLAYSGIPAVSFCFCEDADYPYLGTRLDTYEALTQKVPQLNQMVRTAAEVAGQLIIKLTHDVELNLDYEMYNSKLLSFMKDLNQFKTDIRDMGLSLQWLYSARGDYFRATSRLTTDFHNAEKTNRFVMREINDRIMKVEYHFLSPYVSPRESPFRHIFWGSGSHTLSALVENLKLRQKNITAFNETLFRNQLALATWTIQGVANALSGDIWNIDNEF
# Sequence of UniProt P23458 (whole entry, looked up): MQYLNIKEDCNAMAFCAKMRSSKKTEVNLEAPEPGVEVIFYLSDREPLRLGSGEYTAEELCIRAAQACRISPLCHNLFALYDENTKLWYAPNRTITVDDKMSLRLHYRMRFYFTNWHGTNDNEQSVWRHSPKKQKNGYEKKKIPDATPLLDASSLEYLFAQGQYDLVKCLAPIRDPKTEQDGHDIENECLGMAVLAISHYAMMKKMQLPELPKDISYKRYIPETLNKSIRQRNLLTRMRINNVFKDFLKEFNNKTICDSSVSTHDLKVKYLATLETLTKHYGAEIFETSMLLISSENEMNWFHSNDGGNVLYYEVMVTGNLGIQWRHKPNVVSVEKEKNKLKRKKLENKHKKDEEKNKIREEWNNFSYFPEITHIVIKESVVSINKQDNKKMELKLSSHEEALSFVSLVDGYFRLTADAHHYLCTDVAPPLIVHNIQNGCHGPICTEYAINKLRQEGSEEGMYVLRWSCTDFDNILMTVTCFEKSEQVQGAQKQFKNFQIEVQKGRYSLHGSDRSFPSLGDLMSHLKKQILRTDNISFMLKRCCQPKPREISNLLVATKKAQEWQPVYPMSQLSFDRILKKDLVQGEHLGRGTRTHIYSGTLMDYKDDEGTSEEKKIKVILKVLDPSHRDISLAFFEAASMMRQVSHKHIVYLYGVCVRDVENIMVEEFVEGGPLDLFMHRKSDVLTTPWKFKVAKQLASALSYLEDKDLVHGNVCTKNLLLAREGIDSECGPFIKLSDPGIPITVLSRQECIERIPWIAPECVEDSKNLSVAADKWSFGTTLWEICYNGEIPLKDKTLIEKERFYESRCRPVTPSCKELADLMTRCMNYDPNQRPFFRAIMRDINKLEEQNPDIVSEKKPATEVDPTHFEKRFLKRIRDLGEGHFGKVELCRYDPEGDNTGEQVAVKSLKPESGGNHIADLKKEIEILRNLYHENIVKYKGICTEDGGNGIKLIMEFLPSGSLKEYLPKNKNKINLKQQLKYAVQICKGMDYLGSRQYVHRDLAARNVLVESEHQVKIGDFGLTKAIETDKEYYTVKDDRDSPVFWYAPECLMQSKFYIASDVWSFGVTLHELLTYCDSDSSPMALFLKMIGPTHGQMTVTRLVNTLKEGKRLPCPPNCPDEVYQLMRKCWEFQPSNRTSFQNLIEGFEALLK
# Sequence of UniProt P35414 (whole entry, looked up): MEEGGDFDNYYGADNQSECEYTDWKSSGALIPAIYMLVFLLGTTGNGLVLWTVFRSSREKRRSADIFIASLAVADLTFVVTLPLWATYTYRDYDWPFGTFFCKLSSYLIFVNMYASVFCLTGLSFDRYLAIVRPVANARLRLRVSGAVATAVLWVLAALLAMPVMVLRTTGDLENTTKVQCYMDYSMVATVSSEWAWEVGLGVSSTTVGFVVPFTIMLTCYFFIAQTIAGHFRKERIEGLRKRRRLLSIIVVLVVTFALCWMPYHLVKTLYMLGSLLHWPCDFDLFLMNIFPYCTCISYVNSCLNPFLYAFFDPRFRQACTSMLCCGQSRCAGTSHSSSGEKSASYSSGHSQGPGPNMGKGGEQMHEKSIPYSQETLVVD
SMILES,target,test,test system,setting,how to read,measurement,result
Nc1ncnc2c1ncn2[C@@H]1O[C@H](COP(=O)(O)CP(=O)(O)OP(=O)(O)O)[C@@H](O)[C@H]1O,"P2X purinoceptor 1 (P2RX1, Homo sapiens, UniProt P51575, E122A)",saturation binding,HEK293,103 nM,,specific binding,776 CCPM and 1200 CCPM and 764 CCPM
Oc1ccccc1-c1n[nH]cc1-c1ccnc2ccccc12,"Aurora kinase (IPL1, Candida albicans, UniProt Q59S66)","kinase binding, MIB/MS competition",Candida albicans lysate,1 µM,"reference: DMSO, negative = stronger binding",log2 fold change,0.13
CC[C@H](C)[C@@H]1NC(=O)[C@H](Cc2ccc(-c3ccccc3)cc2)NC(=O)[C@H](CC(C)C)NC(=O)[C@@H]2CCCN2C(=O)[C@@H](NC(=O)[C@H](CCCNC(=N)N)NC(=O)[C@H](CCCNC(=N)N)NC(C)=O)CSSC[C@@H](C(=O)N[C@@H](CCCNC(=N)N)C(=O)N[C@@H](CCCNC(=N)N)C(N)=O)NC(=O)[C@H](CCC#N)NC(=O)[C@@H]2CCCN2C(=O)[C@H](CC(=O)O)NC(=O)[C@H](Cc2ccc(O)cc2)NC(=O)[C@H](CO)NC1=O,"GTPase KRas, GDP-bound (KRAS, Homo sapiens, UniProt P01116, G12D)",affinity selection mass spectrometry,,"mixture library 4, with: protein titration up to 2.5 µM",lower is stronger binding,lowest bound protein concentration,0.04 µM
CCOCc1nc(O)c(-c2nnc(Cc3ccc(Cl)cn3)o2)c(O)c1-c1c(OC)cccc1OC,"Apelin receptor (APLNR, Homo sapiens, UniProt P35414)","β-arrestin1 activation, agonist, BRET biosensor",HEK293,,,Emax,101 ± 5%
CC(=C/C(=O)O)/C=C/C=C(\C)C1C=C2C(C)(C)CCCC2(C)O1 (stereo not drawn),"Rhodopsin (RHO, Homo sapiens, UniProt P08100, P23H)","immunostaining, item: opsin",COS-7 transfected,"30.00 µM, unit not given",reference: surface over total stained cells,plasma membrane localization,0.95
COc1cc(-c2[o+]c3cc(O)cc(O)c3cc2O[C@@H]2O[C@H](CO)[C@@H](O)[C@H](O)[C@H]2O)cc(O)c1O,"Albumin (ALB, Homo sapiens, UniProt P02768)",van't Hoff analysis,,concentration not given,,binding entropy change,-0.02 kJ/(mol·K)
COC(=O)c1cc(C(C)=NNc2nc(-c3ccc4c(c3)OCCCO4)cs2)ccc1O,"Tyrosine-protein phosphatase non-receptor type 1 (PTPN1, Homo sapiens, UniProt P18031)","enzyme activity, inhibitor",,0.1 µM,,Vmax,7140 ΔRFU/min
N[C@H](CNC(=O)c1ccc(-c2cccc3ccccc23)s1)C(=O)O,"Glutamate receptor ionotropic, NMDA 1, with GluN2A (Grin1, Rattus norvegicus, UniProt P35439)",,,with: glutamate 300 µM,,Hill slope,1.36
O=C(COP(=O)(O)O)[C@@H](O)[C@H](O)[C@H](O)COP(=O)(O)O,"Splicing factor U2AF 65 kDa subunit (Homo sapiens, UniProt P26368)","thermal proteome profiling, item: U2AF2",HepG2 cell lysate,"concentration not given, 57 over 37 °C",reference: compound over control,thermal stability ratio,0.571 and 0.588 and 0.409
NC/C(=C\F)COc1cccc(Cn2c(=S)[nH]c(=O)c3[nH]cnc32)c1,human nicotinic acetylcholine receptor,radioligand binding,,10 µM,,inhibition,< 50%
O=c1cc(-c2ccc([N+](=O)[O-])cc2)[nH]c2c(-c3ccc(Cl)cc3)c(Cc3ccccc3)nn12,"WD40 repeat-containing protein SMU1 (Homo sapiens, UniProt Q2TAY7)","thermal stability, binder, thermal proteome profiling","RD, cell lysate","50 µM, 0.5% DMSO",reference: DMSO vehicle,melting temperature shift,6.6 °C
Nc1nc2c(ncn2[C@@H]2O[C@H](COP(=O)(O)O)[C@@H](O)[C@H]2O)c(=O)[nH]1,"GUK1 (Homo sapiens, UniProt Q16774, S37P)","enzyme activity, NADH-coupled",,7.812 µM,,reaction rate,0.135 s⁻¹ and 0.726 s⁻¹ and 0.311 s⁻¹
CCCCCCCCCCC,"uncharacterized protein (Spodoptera exigua, UniProt F1CEY0)","binding, competitor, fluorescence displacement",,"20 µM, pH 7.4, with: 1-NPN 20 µM",reference: 1-NPN alone,relative fluorescence,60.9%
Cc1cc(-c2ccnc3[nH]cc(F)c23)cc(F)c1[C@@]1(O)[C@H](C)CN(C2CCS(=O)(=O)CC2)C[C@@H]1C,"Tyrosine-protein kinase JAK1 (JAK1, Homo sapiens, UniProt P23458)","ATP/ADP probe binding, KiNativ",HEK293T lysate,"0.1 µM, Lys1 peptide domain 2",,probe labelling inhibition,22.7%
CC[C@@H](C)[C@@H](NC(=O)[C@@H](Cc1ccc(O)cc1)NC(=O)[C@H]1CCCN1C(=O)[C@@H](CCCNC(=N)N)NC(=O)[C@H](N)Cc1c[nH]cn1)C(=O)N[C@H](C)C(=O)N[C@H](Cc1c[nH]cn1)C(=O)N[C@H](CCCNC(=N)N)C(=O)N[C@@H](C(=O)N[C@H](Cc1ccc(O)cc1)C(=O)N[C@H](CO)C(=O)N[C@H](Cc1ccccc1)C(N)=O)C(C)C,"Transferrin receptor protein 1 (Tfrc, Mus musculus, UniProt Q62351)",flow cytometry,RAW264.7,"48 h, pH 7.4, unit not given",reference: 0 h,surface TFRC expression,0.963
